# Measured values of several laboratories.
# Lines come from different studies, so protocols differ.
Structure (SMILES),test,test system,setting,endpoint,result
Cn1c(-c2ccc(C(N)=O)cc2F)nnc1C(C)(C)Oc1c(F)cc(Cl)cc1F,,human,"oral, 10 mg, single ascending dose",subjects with any TEAE,0%
CC[C@H]1[C@@H](O)[C@@H]2[C@H](CC[C@]3(C)[C@@H]([C@H](C)CCNC(=O)NS(=O)(=O)c4ccc(C(C)(C)C)cc4)CC[C@@H]23)[C@@]2(C)CC[C@@H](O)C[C@@H]12,,human,"concentration not given, study, added: rifampin",subjects with TEAEs,29.2%
C[C@]1(CO)Cc2ncn(-c3ccc(C#N)c(Cl)c3)c2C(=O)O1,,"human, Chinese",80 mg single dose,subjects with any TEAE,50%
C=C(C)[C@@H]1CCC(C)=C[C@H]1c1c(O)cc(CCCCC)cc1O,,human,"750 mg, trial 17074, added: rifampicin 600 mg",subjects with Death,0%
COc1ccc2c(c1)[C@]13CCCC[C@@H]1[C@H](C2)N(C)CC3,,human,"oral, dose not given",subjects with TEAE,17.9%
NCCCC[C@@H]1NC(=O)[C@@H](Cc2c[nH]c3ccccc23)NC(=O)[C@H](c2ccccc2)NC(=O)[C@@H]2C[C@@H](OC(=O)NCCN)CN2C(=O)[C@H](Cc2ccccc2)NC(=O)[C@H](Cc2ccc(OCc3ccccc3)cc2)NC1=O,,healthy human volunteers,600 µg twice daily,subjects with adverse event Fatigue,9%
CC(=O)N(C)[C@H]1CCN(C(=O)c2cnc3c(c2)C[C@](C)(c2ccc(F)cc2)N3)C1,,healthy male human,"oral, 60 mg once daily, multiple rising dose, added: midazolam",subjects with any AE,62.5%
Cc1ncc2n1-c1ccc(Cl)cc1C(c1ccccc1F)=NC2,measured: investigations (SOC),humans,"oral, dose not given",subjects with TEAEs,0%
CNC(=O)n1ccc2cc(Oc3ccnc(NC(=O)c4ccc(C5CCN(CCO)CC5)cc4)c3)c(OCCOC)cc21,,healthy human,"oral, 35 mg, fasted",subjects with TEAEs,21.4%
Cc1ncc2n1-c1ccc(Cl)cc1C(c1ccccc1F)=NC2,,human,"oral, dose not given",subjects with serious treatment-related TEAE,0%

# Some of these lines once more:
Structure (SMILES),test,test system,setting,endpoint,result
NCCCC[C@@H]1NC(=O)[C@@H](Cc2c[nH]c3ccccc23)NC(=O)[C@H](c2ccccc2)NC(=O)[C@@H]2C[C@@H](OC(=O)NCCN)CN2C(=O)[C@H](Cc2ccccc2)NC(=O)[C@H](Cc2ccc(OCc3ccccc3)cc2)NC1=O,,healthy human volunteers,600 µg twice daily,subjects with adverse event Fatigue,9%
